Experimental data of several laboratories.
A part holds a random share of what one study measured.

Study 1
Target: RNA binding protein fox-1 homolog 2, RRM domain, GST-SBP tag (RBFOX2, Homo sapiens, UniProt O43251-10, residues 100-194)
Technique: RNA Bind-n-Seq
Molecule type: RNA
Sample: in vitro
Tested at: 365 nM
Notes: natural RNA segment, single round, ends assumed
Reference: no-protein control
Reading: higher = stronger binding
Shared flanks, not repeated: GGGAGUUCUACAGUCCGACGAUC … UGGAAUUCUCGGGUGCCAA
Residues (chain): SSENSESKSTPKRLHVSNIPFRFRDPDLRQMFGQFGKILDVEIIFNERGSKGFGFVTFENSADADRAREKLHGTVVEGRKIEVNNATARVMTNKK
| Sequence | RBNS enrichment (R) |
| --- | --- |
| GGACUGAAGCAGCCUGGUUUUAGAGUGUAGCUGUAAGGGCAGUGCCCGUGUGUACAGUCUGUGGAGUUUAGCUUAACGGGCAGGGCCCACAUGUACAGUGUCUGUAUAUA | 0.576 |
| UAUAAAUUAAUCCAGGUUGUGUUAAUACAGCAGUUUUCCUAGGCCCAAAAGGUUACUCUCAUAACAUAAGCUAGCCCCUUCCGGAAGUCAUGGUGGUGGGUUUCUAUCAU | 0.286 |
| UUGAAUGUGUAAGUCCCCACAGAGCAUGGACAGUCGGUGCAGAGUUCCAAGGAAACAAUUAUUGCCUGAUGACCACUUCCAUUUUGUAUACACUCUUUGGUUCGUAUAGG | 1.27 |
| CCUGCCUUCAUGUGGACCCUUAGAACAGCACUGGGAGACCAGCAGGACUCCUGAGAACUGUGCUGGUGGAGAGGUCCUAGAGCCGGCGAGCGUUUGAGAAGAGGGCAUGG | 0.459 |
| UUAAGUUAUCUGAACAAAUACUUUUGAAAAAAAAGUUUGUUGUAUAGUCAAAACAAAUCGGUGCCACCCGGCCGUGACAAAUCCUAGUAGAUUCUGUGCAUGUGGAGCGG | 6.71 |
| UAAAUGUGAUCAGGACUAUAAUAUUGUACAGUUAUUAUAGGGCUUUUGGGGAAGGGGAGGAUAGCGAGAAGAUGCUCUGGGGGUUUUGUUUUUGCUUUUCCUUCAGGGUU | 2.1 |
| UGUUAGAAAAAAAUGUGAUUUAACUAGAACUUGCUGUCUGAUGUUAGCAAAUCAUGGAAUGUUCUGAGUCCCUGAGGGUUUACUGUGAAGUGCUGAGGACAGUGUUGACA | 2.03 |
| CUUUUGUUCUCAGCUUCUGCCAUCUGUGACUACUGAUAUCCUGGAUGGACACCUUGCUGGACUUGAAGUCCGCUAGUUGGACUUUGCCUAGGGCUUUCAUCUUGCCUUGC | 0.508 |

Study 2
Target: Interferon regulatory factor 5, full length, phosphomimetic (IRF5, Homo sapiens, UniProt Q13568-2, residues 1-514, S451D/S453D/S456D/S462D)
Technique: protein-binding microarray
Molecule type: double-stranded DNA, one strand shown
Sample: in vitro
Tested at: 940 nM top
Notes: 60-bp whole probe
Added: salmon DNA 0.4 mg/ml
Reference: random background probes
Reading: higher = stronger binding
Shared flanks, not repeated: GCCTAGCAC … GTCTTGATTCGCTTGACGCTGCTG
| Sequence | fitted relative affinity [z-score] |
| --- | --- |
| TTAGGTATCGACTATCGGTGAGTGCTA | 5.94 |
| GACGGACTTCTACTGCTGACGTGCTAG | 0.234 |
| CTAAATATCTTTGTTGAAAAGTGCTAG | 0.353 |
| GACGGTATCCTAGTGCTGACGTGCTAG | -0.547 |
| CCCTGAGTCCCTTGGGCCTTGTGCTAG | -0.757 |
| ATCCCATTAAATTTTAATAAGTGCTAG | -0.0271 |
| GACGAACTGGGACTGGAGACGTGCTAG | -0.597 |
| TTAGGTTTCGTTATCCTTTAGTGCTAG | 10.1 |
| TCACTTGTGTTTATTGTACTGTGCTAG | 0.384 |
| TTAGCTTCCGGTTTCGGTTAGTGCTAG | 8.59 |
| CTTTCTTTAACATATTCTCTTGTGCTA | 1.93 |
| TTAGGTATCGGGACTGGATTAGTGCTA | 4.03 |
| TTAGAACTAAGTTTCGATTAGTGCTAG | 6.98 |
| TTAGGTTTCCGGTATCGGTTAGTGCTA | 4.85 |
| TTAGGTATCGACTATCGTTTAGTGCTA | 5.98 |
| TCACATTTCCCTTGCCGACTGTGCTAG | 1.25 |
| TTTGCTTTCTTTATGTACTCGTGCTAG | 2.17 |
| GAAAGCCTGCTGCCAGTCTGGTGCTAG | -0.628 |
| GACGCTATCGGTCTCGGGACGTGCTAG | 1.43 |

Study 3
Target: RING finger protein unkempt homolog, zinc fingers 1-6, GST-SBP tag (UNK, Homo sapiens, UniProt Q9C0B0, residues 30-357)
Sequence of UniProt Q9C0B0 (30-357, looked up): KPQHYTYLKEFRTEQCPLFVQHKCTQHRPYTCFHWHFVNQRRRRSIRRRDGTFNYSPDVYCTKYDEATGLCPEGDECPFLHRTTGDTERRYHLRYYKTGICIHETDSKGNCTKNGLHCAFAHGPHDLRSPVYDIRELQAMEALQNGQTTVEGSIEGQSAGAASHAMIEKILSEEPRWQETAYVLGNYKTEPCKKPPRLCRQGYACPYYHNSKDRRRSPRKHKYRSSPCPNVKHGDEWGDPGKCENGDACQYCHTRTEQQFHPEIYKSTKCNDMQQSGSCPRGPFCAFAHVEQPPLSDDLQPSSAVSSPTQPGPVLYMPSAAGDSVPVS
Technique: RNA Bind-n-Seq
Molecule type: RNA
Sample: in vitro
Tested at: not given
Notes: RNA with constant flanks, human and mouse sites, ends assumed
Reference: input RNA pool
Reading: higher = stronger binding
Shared flanks, not repeated: GGGAGUUCUACAGUCCGACGAUC … CAACAGAGGAUUGAGCAUCA
| Sequence | bound/input enrichment |
| --- | --- |
| GGAUAUUCUAAGAUCCAGAUAUACAUAACUGAUCCAGACUUUAAGGGUUUUAUACGCAUCAGCUGUUGCCAGUACUGUAAAAUAGAAUUUCACAUGAAUUGCUGGAAGAAGUUAAAAACU | 0.273 ratio |
| GGACAGGGAUUUUUGUAAGUCUAUAUUUGAAAGUCCCUCCCUAUGGUGAUACUGUGUUCAUGUUGUUUAUGUAGUGUUGUGUGAAAUAUCCAUUUUGGAUUGUGUUACUUUUUAAGAUAU | 0.475 ratio |
| CUGCAUCUUCACUACACAGUGAGCAUCACCAGUUUUAUCCCACGUUUUAACUUUCUAAGCAUAGAUCUGCCAGUGGUUGUGGAGACAUUUGUCAAGUACCUGAUUUCCCUCUCAGGAGCU | 0.479 ratio |
| UCCCCUUAUGAUCAGGCGGCUUGGAUUUUGAAAGCACGGGCGCUGACAGAGAUGGUGUACAUAGAUGAAAUUGAUGUGGACCAGGAAGGAAUUGCUGAAAUGAUCCUGGAUGAAAAUGCU | 0.871 ratio |
| AAGAGGGAUCUGUUUGCAAAAAUUAUUGAAGAUCAUCUGGCAAGCAGAAGUGAAGAGAACAUAGACCAGCUUGCAGGAUGAACAAGCUGCCCUGUUAGUGCAGUGCUUUGAAGUGGGACC | 0.319 ratio |
| AAAGGAAAGGAAGUAGAUAACUUUGUGGACAAAUUAAAAUCUGAAGGUGAAACCAUCAUGUCCUCUAGUAUGGGCAAGCGUACUUCUGAAGCAACCAAAAUGCAUGCUCCACCCAUUAAU | 0.198 ratio |
| AUAAGUUAUACUUUCCGUUCAGUUUGUGUUUGUUCCAUAUGCGGAGUGUGGCACUCUGGCUAGCUGAGUUCAGUUCCCACGGGGACUCCUGUUUCUUAGGAAGCAUGCCAAAUGCCAGCU | 0.297 ratio |
| AGAUGCAGAGCCAGGCCCCCUGGAAGAGCUUGCAGCAACCCCUCCUUCCUUCAGUUUCAACUAGACUUCUAUCAAGUCUACUUUCUGGCCCUGGCAGCGGACUGGCUCCAAGCUCCCUAC | 0.147 ratio |

Study 4
Target: Sal-like protein 4, full length isoform A (SALL4, Homo sapiens, UniProt Q9UJQ4, residues 1-1053)
Sequence of UniProt Q9UJQ4 (whole entry, looked up): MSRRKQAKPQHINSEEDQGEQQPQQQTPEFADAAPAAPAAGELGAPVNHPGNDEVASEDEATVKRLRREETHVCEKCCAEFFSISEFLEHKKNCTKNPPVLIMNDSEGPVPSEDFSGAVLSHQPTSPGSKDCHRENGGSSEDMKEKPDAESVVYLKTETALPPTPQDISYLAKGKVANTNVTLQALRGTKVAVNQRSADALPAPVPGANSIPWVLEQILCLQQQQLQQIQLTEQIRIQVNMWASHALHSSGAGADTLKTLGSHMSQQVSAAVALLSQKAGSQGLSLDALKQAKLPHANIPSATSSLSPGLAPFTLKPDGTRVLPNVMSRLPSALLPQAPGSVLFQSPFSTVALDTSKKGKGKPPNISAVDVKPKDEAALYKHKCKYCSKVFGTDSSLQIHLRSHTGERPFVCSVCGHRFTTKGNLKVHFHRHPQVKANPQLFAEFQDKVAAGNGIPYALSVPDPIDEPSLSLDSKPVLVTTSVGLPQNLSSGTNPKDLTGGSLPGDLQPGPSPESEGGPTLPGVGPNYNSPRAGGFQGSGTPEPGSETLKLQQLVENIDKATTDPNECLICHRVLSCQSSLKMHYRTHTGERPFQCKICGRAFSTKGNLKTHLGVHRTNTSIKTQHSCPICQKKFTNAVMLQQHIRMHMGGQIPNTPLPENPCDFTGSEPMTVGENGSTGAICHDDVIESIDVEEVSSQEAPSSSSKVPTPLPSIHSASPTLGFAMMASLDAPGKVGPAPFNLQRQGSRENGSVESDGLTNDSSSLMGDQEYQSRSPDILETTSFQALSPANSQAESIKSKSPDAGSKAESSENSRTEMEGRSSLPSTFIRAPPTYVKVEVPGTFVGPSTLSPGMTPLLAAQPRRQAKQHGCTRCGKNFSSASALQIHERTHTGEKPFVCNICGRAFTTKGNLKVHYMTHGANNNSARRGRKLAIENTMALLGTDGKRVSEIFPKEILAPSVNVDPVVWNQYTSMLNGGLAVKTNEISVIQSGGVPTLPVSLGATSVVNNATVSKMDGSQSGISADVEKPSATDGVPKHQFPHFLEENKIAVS
Technique: universal PBM
Molecule type: double-stranded DNA, one strand shown
Sample: in vitro
Tested at: 600 nM
Notes: 8-mer, flanks averaged, mean of replicates
Reading: higher = stronger binding
| Sequence | E-score |
| --- | --- |
| GCGTACGA | -0.0584 |
| AGGAAACA | 0.0951 |
| CATGTGCC | -0.0286 |
| CATTGTGA | -0.105 |
| CGCGTCAC | -0.18 |
| CCCTTGGA | -0.0215 |
| ACACTTGG | 0.0617 |
| CATTATCC | 0.161 |
| AGGGGCTG | -0.218 |
| AGAAGGCG | -0.227 |
| CGGTCCGA | -0.302 |
| GTCTCCCA | -0.236 |
| GTCAATGA | 0.0854 |
| TAGTCATA | 0.304 |
| GTTTATAA | 0.36 |
| ACCCTGGA | -0.156 |
| GAAGTACC | -0.135 |
| AACGTGCG | -0.101 |
| GCACGCGC | -0.202 |
| CCTGATCC | -0.148 |
| GCTTTTCA | 0.0615 |
| GTCTTTGA | 0.11 |
| CTCGGACC | -0.212 |
